{"data": "Measured values from different studies", "note": "Protocols differ between the studies behind these lines. ± marks the error that the study gave."}
{"SMILES": "CC(=O)N[C@H](CC(=O)O)C(=O)N[C@H](Cc1c[nH]c2ccccc12)C(=O)N[C@H](Cc1ccccc1)C(=O)N[C@H](CCCCN)C(=O)N[C@H](C)C(=O)N[C@H](Cc1ccccc1)C(=O)N[C@H](Cc1ccc(O)cc1)C(=O)N[C@H](CC(=O)O)C(=O)N[C@H](CCCCN)C(=O)N[C@@H](C(=O)N[C@H](C)C(=O)N[C@H](CCC(=O)O)C(=O)N[C@H](CCCCN)C(=O)N[C@H](Cc1ccccc1)C(=O)N[C@H](CCCCN)C(=O)N[C@H](CCC(=O)O)C(=O)N[C@H](C)C(=O)N[C@H](Cc1ccccc1)C(N)=O)C(C)C", "test system": "statin-treated high-risk CHD men, plasma", "conditions": "oral, 100 mg daily, day 13, 0 to 8 h, mean, undetectable set to 0", "quantity": "AUC(0-t)", "value": "6.94 ng·h/mL"}
{"SMILES": "NC12CNCCNCC(NCc3ccc(CNC(=O)CCCC(=O)NCc4ccc(-c5nncnn5)cc4)cc3)(CNCCNC1)CNCCNC2.[64Cu+2]", "assay": "OLINDA dosimetry", "test system": "small intestine", "conditions": "48 h pretargeting interval, with: huA33-TCO pretargeting", "quantity": "mean absorbed dose", "value": "0.039 rad/mCi"}
{"SMILES": "COCCOCCOCCOCCC(=O)NCc1cc(CNC(=O)CCOCCOCCOCCOC)cc(-c2cc3cc4nc(c(-c5ccc(CCC(=O)O)cc5)c5[nH]c(cc6nc(c(OC)c2[nH]3)CC6(C)C)cc5-c2cc(CNC(=O)CCOCCOCCOCCOC)cc(CNC(=O)CCOCCOCCOCCOC)c2)CC4(C)C)c1", "test system": "water with 5% DMF", "conditions": "room temperature", "quantity": "internal conversion yield", "value": 0.55}
{"SMILES": "CCCC(CCC)NC(=O)c1ccc(O)c(OC2OC(C(=O)O)C(O)C(O)C2O)c1 (stereo not shown)", "assay": "LC-MS", "test system": "Sprague-Dawley rats, pooled sexes, plasma", "conditions": "oral, 200 mg/kg of parent drug, 1 h", "scale": "relative to: total peak area", "quantity": "metabolite peak area", "value": "0.98%"}
{"SMILES": "CNC(=O)N[C@]1(C)CCC[C@@]2(C)C3CC[C@@]4(C)C[C@]3(CCC21)CC4=O (single isomer, unassigned)", "test system": "rat plasma", "conditions": "1.5 ng/mL, 8 h, room temperature, short-term stability", "quantity": "measured concentration", "value": "1.38 ± 0.09 ng/mL"}
{"SMILES": "O=C(O)c1cc2cc(O)ccc2n1Cc1ccc(Cl)c(C(F)(F)F)c1", "test system": "male Wistar Hannover rat, serum", "conditions": "oral, 200 mg/kg, single dose, peak range", "quantity": "ALT", "value": "67 to 102 U/L"}
{"SMILES": "Cn1c(=O)oc2ccc(-c3ccc(CC(C#N)NC(=O)C4CNCCCO4)c(F)c3)cc21 (stereo not shown)", "assay": "item: blood triglycerides increased", "test system": "human volunteers", "conditions": "oral, dose not given", "quantity": "treatment-emergent adverse event incidence", "value": "37%"}
{"SMILES": "CCCC[C@H](NC(=O)CNC(=O)CNC(=O)CN1CCN(CC(=O)O)CCN(CC(=O)O)CCN(CC(=O)O)CC1)C(=O)N[C@H]1CC(=O)NCCCC[C@@H](C(N)=O)NC(=O)[C@H](Cc2c[nH]c3ccccc23)NC(=O)[C@H](CCCNC(=N)N)NC(=O)[C@@H](Cc2ccccc2)NC(=O)[C@H](Cc2c[nH]cn2)NC1=O [copper-64 labelled]", "test system": "female C57 mouse, B16/F1 melanoma", "conditions": "intravenous, 0.037 MBq, 24 h", "scale": "relative to: tumour over liver", "quantity": "uptake ratio", "value": 0.82}
{"SMILES": "NC[C@@H](C(=O)Nc1ccc(-c2cn[nH]c2)cc1)c1ccccc1", "assay": "OECD 405 eye irritation", "test system": "New Zealand White rabbit, eye", "conditions": "topical, 0.1%, 48 h (day 3), scale 0 to 2", "scale": "direction not given", "quantity": "iris score", "value": 0}
{"SMILES": "CC[C@H](C)[C@@H]1NC(=O)[C@H](Cc2ccccc2)NC(=O)[C@@H](NC(=O)[C@H](CCCNC(=N)N)NC(=O)[C@H](Cc2ccccc2)NC(=O)[C@H](Cc2ccccc2)NC(=O)[C@H](CCCCN)NC(=O)[C@H](CO)NC(=O)[C@H](CC(C)C)NC(=O)[C@H](CCCNC(=N)N)NC(=O)[C@H](CCSC)NC(=O)[C@H](C)N)CCCNC(=O)NCC[C@@H](C(=O)N[C@@H](CCCNC(=N)N)C(=O)N[C@@H](CCCCN)C(=O)N[C@@H](CCCCN)C(=O)O)NC(=O)[C@H](CC(C)C)NC1=O", "assay": "circular dichroism", "test system": "2.5 mM DPC", "quantity": "melting temperature", "value": "66.2 °C"}
